Published values collected from several papers.
Each numbered part is a random draw from the data of one study; scales do not carry over between parts. Positions count from the first letter of the parent shown.
UniProt Q6ZN16, sequence (whole entry, looked up): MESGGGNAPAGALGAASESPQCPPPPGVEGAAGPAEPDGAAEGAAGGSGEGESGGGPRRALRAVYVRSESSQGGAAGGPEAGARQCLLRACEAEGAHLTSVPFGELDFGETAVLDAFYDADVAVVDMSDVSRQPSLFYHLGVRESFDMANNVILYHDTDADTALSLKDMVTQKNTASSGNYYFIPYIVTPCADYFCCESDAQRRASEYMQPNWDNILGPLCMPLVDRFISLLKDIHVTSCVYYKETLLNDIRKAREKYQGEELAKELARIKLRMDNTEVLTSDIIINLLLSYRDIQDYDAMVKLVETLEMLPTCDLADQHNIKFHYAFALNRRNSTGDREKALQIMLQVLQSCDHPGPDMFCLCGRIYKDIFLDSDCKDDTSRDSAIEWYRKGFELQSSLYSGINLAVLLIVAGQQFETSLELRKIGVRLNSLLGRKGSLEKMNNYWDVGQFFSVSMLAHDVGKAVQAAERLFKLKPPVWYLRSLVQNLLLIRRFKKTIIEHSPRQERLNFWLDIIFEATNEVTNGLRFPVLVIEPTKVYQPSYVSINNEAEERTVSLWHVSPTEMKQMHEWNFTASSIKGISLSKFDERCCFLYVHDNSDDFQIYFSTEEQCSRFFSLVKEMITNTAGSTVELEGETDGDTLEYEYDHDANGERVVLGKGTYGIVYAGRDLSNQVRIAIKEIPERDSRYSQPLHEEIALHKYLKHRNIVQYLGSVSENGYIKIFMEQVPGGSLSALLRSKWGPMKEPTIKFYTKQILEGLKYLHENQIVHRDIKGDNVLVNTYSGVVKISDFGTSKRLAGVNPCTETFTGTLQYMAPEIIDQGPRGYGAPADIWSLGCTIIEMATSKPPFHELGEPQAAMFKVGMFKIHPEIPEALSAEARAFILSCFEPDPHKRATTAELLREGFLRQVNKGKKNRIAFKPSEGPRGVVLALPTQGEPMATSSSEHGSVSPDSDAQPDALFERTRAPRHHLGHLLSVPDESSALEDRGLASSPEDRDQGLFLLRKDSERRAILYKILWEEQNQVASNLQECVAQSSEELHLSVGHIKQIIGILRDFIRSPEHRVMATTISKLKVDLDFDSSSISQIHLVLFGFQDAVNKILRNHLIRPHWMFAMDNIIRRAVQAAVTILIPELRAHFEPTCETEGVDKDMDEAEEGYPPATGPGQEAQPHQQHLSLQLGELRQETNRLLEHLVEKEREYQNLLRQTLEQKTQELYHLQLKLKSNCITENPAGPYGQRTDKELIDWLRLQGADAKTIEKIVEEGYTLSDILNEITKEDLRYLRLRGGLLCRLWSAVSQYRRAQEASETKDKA
UniProt O94804, sequence (whole entry, looked up): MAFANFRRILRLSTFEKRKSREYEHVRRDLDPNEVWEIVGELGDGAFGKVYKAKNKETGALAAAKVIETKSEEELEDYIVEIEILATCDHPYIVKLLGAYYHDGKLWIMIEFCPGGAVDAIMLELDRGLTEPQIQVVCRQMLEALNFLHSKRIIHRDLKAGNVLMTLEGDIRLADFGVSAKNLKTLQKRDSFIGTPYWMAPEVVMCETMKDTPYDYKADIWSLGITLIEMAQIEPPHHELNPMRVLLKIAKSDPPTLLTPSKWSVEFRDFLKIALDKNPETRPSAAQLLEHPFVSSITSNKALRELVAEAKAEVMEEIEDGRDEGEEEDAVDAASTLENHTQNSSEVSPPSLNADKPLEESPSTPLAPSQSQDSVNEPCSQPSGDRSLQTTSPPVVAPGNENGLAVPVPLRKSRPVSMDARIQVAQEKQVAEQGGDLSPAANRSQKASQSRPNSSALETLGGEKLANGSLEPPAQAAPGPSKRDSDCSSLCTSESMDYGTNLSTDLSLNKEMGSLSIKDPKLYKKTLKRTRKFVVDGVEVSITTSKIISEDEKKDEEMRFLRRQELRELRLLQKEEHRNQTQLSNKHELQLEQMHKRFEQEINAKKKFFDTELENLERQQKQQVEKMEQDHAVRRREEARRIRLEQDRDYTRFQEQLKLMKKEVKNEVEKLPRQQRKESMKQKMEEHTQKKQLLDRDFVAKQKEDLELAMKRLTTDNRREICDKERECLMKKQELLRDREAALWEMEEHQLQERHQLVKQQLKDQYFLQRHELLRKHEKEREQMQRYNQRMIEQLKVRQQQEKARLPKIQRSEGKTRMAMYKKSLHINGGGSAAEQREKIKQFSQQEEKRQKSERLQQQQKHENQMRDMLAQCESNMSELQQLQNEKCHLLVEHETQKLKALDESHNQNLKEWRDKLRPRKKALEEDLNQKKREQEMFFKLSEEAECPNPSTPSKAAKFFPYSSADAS
UniProt Q15759, sequence (whole entry, looked up): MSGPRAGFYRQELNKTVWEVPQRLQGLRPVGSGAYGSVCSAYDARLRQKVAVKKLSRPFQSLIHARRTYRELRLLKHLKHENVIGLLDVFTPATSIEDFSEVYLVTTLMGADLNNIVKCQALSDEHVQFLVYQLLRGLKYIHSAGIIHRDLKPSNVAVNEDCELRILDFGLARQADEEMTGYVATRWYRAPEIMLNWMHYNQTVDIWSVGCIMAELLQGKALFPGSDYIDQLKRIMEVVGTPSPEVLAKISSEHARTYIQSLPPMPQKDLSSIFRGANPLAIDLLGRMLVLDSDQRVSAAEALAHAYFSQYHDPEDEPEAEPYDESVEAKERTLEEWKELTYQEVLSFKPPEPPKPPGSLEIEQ
UniProt Q86YV6, sequence (whole entry, looked up): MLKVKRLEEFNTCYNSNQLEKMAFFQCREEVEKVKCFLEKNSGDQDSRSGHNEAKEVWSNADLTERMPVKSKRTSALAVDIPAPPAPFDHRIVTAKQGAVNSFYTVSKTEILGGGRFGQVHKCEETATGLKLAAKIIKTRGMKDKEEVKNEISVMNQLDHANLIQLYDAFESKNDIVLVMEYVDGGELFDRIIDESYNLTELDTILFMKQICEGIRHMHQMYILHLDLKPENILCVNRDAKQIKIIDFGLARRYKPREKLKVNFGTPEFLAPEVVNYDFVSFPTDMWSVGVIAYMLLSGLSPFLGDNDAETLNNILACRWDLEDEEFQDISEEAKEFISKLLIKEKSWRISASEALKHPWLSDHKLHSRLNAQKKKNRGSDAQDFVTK
UniProt Q00537, sequence (whole entry, looked up): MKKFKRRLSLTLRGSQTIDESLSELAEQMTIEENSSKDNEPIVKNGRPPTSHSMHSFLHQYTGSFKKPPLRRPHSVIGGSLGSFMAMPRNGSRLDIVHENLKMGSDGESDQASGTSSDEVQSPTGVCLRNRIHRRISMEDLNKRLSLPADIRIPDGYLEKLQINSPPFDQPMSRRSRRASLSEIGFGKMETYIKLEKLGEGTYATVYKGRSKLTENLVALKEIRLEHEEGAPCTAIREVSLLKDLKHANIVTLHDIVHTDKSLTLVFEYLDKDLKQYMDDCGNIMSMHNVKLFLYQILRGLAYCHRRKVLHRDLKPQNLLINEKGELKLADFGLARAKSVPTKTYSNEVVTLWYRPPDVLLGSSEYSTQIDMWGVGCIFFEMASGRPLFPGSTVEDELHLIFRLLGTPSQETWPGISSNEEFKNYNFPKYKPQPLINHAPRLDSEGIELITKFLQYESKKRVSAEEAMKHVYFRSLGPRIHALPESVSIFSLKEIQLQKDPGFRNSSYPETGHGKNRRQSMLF
UniProt Q9NSY1, sequence (whole entry, looked up): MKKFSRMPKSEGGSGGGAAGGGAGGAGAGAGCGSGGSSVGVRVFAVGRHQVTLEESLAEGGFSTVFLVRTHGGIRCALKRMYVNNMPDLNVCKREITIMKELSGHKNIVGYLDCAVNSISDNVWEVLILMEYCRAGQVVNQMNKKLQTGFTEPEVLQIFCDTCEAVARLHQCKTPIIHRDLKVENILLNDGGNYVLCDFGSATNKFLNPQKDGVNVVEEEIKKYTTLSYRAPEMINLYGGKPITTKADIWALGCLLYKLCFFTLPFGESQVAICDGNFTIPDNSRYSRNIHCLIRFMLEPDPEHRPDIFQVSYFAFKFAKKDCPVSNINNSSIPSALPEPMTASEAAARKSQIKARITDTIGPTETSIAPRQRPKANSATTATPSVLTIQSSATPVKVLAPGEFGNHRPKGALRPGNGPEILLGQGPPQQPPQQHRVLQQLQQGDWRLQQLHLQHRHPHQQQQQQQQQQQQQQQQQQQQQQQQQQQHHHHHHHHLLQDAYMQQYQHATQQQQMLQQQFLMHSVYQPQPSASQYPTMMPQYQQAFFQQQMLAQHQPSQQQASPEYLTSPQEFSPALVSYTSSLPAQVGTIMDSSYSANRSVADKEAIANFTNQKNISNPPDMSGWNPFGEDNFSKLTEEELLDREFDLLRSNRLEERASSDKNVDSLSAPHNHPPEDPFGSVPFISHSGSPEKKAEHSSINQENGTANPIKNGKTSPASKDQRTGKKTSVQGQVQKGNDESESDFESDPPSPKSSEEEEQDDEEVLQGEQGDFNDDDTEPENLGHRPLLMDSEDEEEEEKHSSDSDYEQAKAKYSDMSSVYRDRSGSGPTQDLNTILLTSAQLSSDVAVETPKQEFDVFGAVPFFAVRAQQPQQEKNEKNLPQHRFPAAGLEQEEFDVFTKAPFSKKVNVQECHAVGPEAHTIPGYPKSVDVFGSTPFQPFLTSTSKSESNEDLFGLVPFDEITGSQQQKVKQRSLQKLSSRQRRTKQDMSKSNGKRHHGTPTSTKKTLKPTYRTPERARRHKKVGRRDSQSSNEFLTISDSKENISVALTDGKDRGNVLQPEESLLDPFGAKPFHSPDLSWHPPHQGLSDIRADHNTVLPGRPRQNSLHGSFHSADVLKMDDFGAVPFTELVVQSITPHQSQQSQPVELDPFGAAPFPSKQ

Sample 1 — effect on: cell-free assay; technique: competition with immobilised ligand; concentration: 1 µM
Structure (SMILES): CC(=O)C1=C(C)N(c2cccc(C(F)(F)F)c2)C(=O)N[C@@H]1c1ccc(C#N)nc1
For Serine/threonine-protein kinase SBK1 (SBK1, Homo sapiens, UniProt Q52WX2): remaining binding read 100%.
For Receptor-type tyrosine-protein kinase FLT3 (FLT3, Homo sapiens, UniProt P36888, D835H): remaining binding read 100%.
For BMP-2-inducible protein kinase (BMP2K, Homo sapiens, UniProt Q9NSY1): remaining binding read 100%.
It gave 100% for remaining binding (Mitogen-activated protein kinase kinase kinase 4 (MAP3K4, Homo sapiens, UniProt Q9Y6R4)).
The remaining binding was 100% (Myosin light chain kinase family member 4 (MYLK4, Homo sapiens, UniProt Q86YV6)).
The remaining binding was 78.6% (Epidermal growth factor receptor (EGFR, Homo sapiens, UniProt P00533, del746-750)).
For Aurora kinase C (AURKC, Homo sapiens, UniProt Q9UQB9): remaining binding read 100%.
For Cyclin-dependent kinase 17 (CDK17, Homo sapiens, UniProt Q00537): remaining binding read 100%.
For Mitogen-activated protein kinase kinase kinase 15 (MAP3K15, Homo sapiens, UniProt Q6ZN16): remaining binding read 100%.
It gave 74.2% for remaining binding (Bone morphogenetic protein receptor type-1B (BMPR1B, Homo sapiens, UniProt O00238)).
The remaining binding was 100% (Serine/threonine-protein kinase/endoribonuclease IRE1 (ERN1, Homo sapiens, UniProt O75460)).
The remaining binding was 84.5% (Serine/threonine-protein kinase 10 (STK10, Homo sapiens, UniProt O94804)).
It gave 91.2% for remaining binding (Mitogen-activated protein kinase kinase kinase 6 (MAP3K6, Homo sapiens, UniProt O95382)).
It gave 100% for remaining binding (Serine/threonine-protein kinase 36 (STK36, Homo sapiens, UniProt Q9NRP7)).
The remaining binding was 100% (Mitogen-activated protein kinase 11 (MAPK11, Homo sapiens, UniProt Q15759)).

Sample 2 — technique: aptamer microarray, sandwich; form: DNA with 2'F-ANA; sample: in vitro; concentration: 200 nM; together with: Cy3 exosite-II aptamer, 400 nM; direction: higher = stronger binding; strand: GGTTGGTGTGGTTGG
Target: Prothrombin, mature alpha-thrombin (F2, Homo sapiens, UniProt P00734)
Setting: whole 15-mer aptamer, many near background
`2'F-ANA at 1 2 3 8 10 12 14 15` — result for “mean fluorescence intensity”: 58.9 a.u.
Under “mean fluorescence intensity”, `2'F-ANA at 1 3 5 7 9 11 12 14 15` is recorded as 48.3 a.u.
`2'F-ANA at 1 4 6 7 8 11 12 13 14 15`: “mean fluorescence intensity” 98.9 a.u.
For `2'F-ANA at 2 3 4 10 13`, “mean fluorescence intensity” read 233 a.u.
Under “mean fluorescence intensity”, `2'F-ANA at 2 4 7 9 13 14 15` is recorded as 84.3 a.u.
`2'F-ANA at 1 2 3 4 5 9 10 12 13 15` — result for “mean fluorescence intensity”: 48.3 a.u.
Under “mean fluorescence intensity”, `2'F-ANA at 2 5 6 11 15` is recorded as 56 a.u.
`2'F-ANA at 2 3 4 5 6 7 9 10 12 13 15`: “mean fluorescence intensity” 63.4 a.u.

Sample 3 — cell line: Huh-7; concentration: 10 µM; time: 24 h
The viability of `Nc1ncnc2c1ncn2[C@@H]1O[C@H](CO)[C@@H](O)[C@H]1O` is reported as 101%.
With `CC1=C(/C=C/C(C)=C/C=C/C(C)=C\C(=O)O)C(C)(C)CCC1` the viability was 102%.
With `NS(=O)(=O)c1cc2c(cc1Cl)N=CNS2(=O)=O` the viability was 104%.

Sample 4 — target: OGT, full length, His-tagged (human); technique: phage display, sequencing; sample: in vitro; concentration: 1 µg OGT; relative to: input library; direction: higher = stronger binding
Setting: single substitutions, 15-mer displayed peptide, unchanged parent 16.7
Starting sequence: peptide; NSEYMPQYQIIFAHQ; partner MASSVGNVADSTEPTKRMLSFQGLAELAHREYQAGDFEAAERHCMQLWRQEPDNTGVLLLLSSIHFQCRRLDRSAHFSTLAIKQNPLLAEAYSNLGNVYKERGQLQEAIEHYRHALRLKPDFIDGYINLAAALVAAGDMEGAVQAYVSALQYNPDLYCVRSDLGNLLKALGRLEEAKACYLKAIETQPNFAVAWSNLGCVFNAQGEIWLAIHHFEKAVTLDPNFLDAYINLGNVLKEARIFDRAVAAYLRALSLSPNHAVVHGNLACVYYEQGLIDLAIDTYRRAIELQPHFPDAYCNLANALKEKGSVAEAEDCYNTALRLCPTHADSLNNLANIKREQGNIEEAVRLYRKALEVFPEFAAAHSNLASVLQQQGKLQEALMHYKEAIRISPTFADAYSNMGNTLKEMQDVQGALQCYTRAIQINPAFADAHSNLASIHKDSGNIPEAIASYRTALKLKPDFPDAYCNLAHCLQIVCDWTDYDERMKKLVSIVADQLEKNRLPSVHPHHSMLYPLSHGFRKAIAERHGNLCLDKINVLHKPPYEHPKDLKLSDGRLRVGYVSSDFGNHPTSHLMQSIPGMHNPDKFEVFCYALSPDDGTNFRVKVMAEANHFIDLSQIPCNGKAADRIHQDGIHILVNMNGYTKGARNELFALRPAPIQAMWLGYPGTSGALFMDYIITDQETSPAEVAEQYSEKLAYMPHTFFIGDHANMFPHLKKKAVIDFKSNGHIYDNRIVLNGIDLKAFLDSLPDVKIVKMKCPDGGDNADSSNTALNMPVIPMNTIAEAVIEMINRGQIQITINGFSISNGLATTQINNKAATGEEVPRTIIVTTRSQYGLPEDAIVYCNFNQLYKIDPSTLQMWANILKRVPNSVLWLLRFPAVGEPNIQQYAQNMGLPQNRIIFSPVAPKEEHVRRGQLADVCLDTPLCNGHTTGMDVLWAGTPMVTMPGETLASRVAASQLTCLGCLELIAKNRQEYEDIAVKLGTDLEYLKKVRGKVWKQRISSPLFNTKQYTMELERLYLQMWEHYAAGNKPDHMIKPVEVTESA
`NSEYMPQYQIINAHQ [F12N]` has a fold enrichment of 0.355 fold.
`NSEWMPQYQIIFAHQ [Y4W]` gave a fold enrichment of 11.3 fold.
With `NSEYMPQYQIIFPHQ [A13P]` the fold enrichment was 34.4 fold.
With `NSEYMPQNQIIFAHQ [Y8N]` the fold enrichment was 0.387 fold.
For `NSEYMPQYQIIMAHQ [F12M]`, the fold enrichment was 5.75 fold.
`NSEYMPQYQIIKAHQ [F12K]` has a fold enrichment of 1.01 fold.
For `NSEYMPHYQIIFAHQ [Q7H]`, the fold enrichment was 10.9 fold.
`NSEYMPQYQIIFGHQ [A13G]` gave a fold enrichment of 13.1 fold.

Other studies, line by line
FKH1 DNA-binding domain: Fork head protein homolog 1, DNA-binding domain (FKH1, Saccharomyces cerevisiae, UniProt P40466, residues 243-484)
UniProt P40466, sequence (243-484, looked up): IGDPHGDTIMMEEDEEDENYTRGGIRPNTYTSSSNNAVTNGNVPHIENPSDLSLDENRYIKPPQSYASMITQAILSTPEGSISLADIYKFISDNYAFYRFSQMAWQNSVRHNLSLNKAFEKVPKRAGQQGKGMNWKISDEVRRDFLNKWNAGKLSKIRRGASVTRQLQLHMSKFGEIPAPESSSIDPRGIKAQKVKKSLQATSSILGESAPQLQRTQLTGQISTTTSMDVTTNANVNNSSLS
`GTACACA` — result for “relative binding free energy”: 1.32 ddG/RT (FKH1 DNA-binding domain; SELEX-seq; double-stranded DNA, one strand shown, in vitro; not given, 7-bp core, flanks averaged; relative to: best-binding core, lower = stronger binding).
For `O=c1cc(N2CCOCC2)oc2c1ccc1ccccc12`, the inhibition was 9.95% (AlphaScreen signal, AlphaScreen counter screen; His6 peptide without bromodomain; 50 µM, assay interference check).
`ATAAACA`: “relative binding free energy” 0.536 ddG/RT (FKH1 DNA-binding domain; SELEX-seq; double-stranded DNA, one strand shown, in vitro; not given, 7-bp core, flanks averaged; relative to: best-binding core, lower = stronger binding).
